Published values gathered from unrelated publications.
Parts stem from different laboratories: compare values within a part only. Changes are numbered by the printed parent chain.

Series 1
Target: Fragile X messenger ribonucleoprotein 1, C-terminal low-complexity region (Fmr1, Mus musculus, UniProt P35922)
Technique: RNA Bind-n-Seq
Molecule type: RNA
Sample: in vitro
Concentration: 200 nM
Notes: whole 134-nt RNA, ends assumed
Together with: 150 mM KCl
Baseline: input library
Direction: higher = stronger binding
Endpoint: log2 enrichment
Shared flanks, not repeated: GGGAGUUCUACAGUCCGACGAUC … UGGAAUUCUCGGGUGUCAAGG
ACCAUACAGGUGGGCAUCUUUGGGAAGUGGGGCAAGGGGGGGAUAGGGAGGGGGGUAACACUUUGGGAACAGGUGGUCCCAGGUCGUUUC: 0.958
UCCUGUGCUACACAUCGUAUGUACCGAAUCGGGGUUUUUUGGGUUUUUUGGUUUUUUGGGAAAGUAUUAUGUUACGCCGUUCGGAUCUGC: 0.0014
CUGUGCUACACAUCGUAUGUACCGAAUCGGGAAAAAAGGGGAAAAAAGGGGAAAAAAGGGGAAAGUAUUAUGUUACGCCGUUCGGAUCUG: -0.343
GUCCUGUGCUACACAUCGUAUGUACCGAAUCGGUUUUUGGUUUUUUUGGUUUUUUUGGAAAGUAUUAUGUUACGCCGUUCGGAUCUGCAC: -0.746
GUCCUGUGCUACACAUCGUAUGUACCGAAUCGGAAAAAAAGGUUUUUUUGGUUUUUGGAAAGUAUUAUGUUACGCCGUUCGGAUCUGCAC: -1.35
CACAGACAACACGCACCCACACAGACACAGAGGGAAGGGGUUGGGAUGGGGACAGGGUGCUCAGCAGGGCGGGGUAGGACCCCAGCCCCU: 1.34
GUCCUGUGCUACACAUCGUAUGUACCGAAUCGGGAAAAAAAGGGAGGGAAAAAAAGGGAAAGUAUUAUGUUACGCCGUUCGGAUCUGCAC: -0.145
UGAGUAGAUCUAGAAAUGACAGUAUGACUUUGUUUCUAACAGCUCCAAAAUGGAUCAAAAUGUUUGUUUUGGAUGAAGCAGAUGAAAUGU: -2.66
CAAGUCCUGUGCUACACAUCGUAUGUACCGAAUCGGCCCCGGGCCCCGGCCCCGGGAAAGUAUUAUGUUACGCCGUUCGGAUCUGCACUU: -0.449
CAAGUCCUGUGCUACACAUCGUAUGUACCGAAUCGGGUUUUUGGGUGGGAAAGGGAAAGUAUUAUGUUACGCCGUUCGGAUCUGCACUUC: 0.837
AAGUCCUGUGCUACACAUCGUAUGUACCGAAUCGGGAAAGGGAAAAAAAGGGUGGGAAAGUAUUAUGUUACGCCGUUCGGAUCUGCACUU: 0.614
UGCCUCCCUGCUGCAGAAAUACACCGACAACAGCGAGAAGCCAUCCGGGAAGAGACUGUGCAAAACCAAACACUUGAUCCCUCAGGAGUC: -0.198
UGGCCCUGGUGGCAUGCGAGGAGGAAGAGGUGGCCUCAUGGAUCGUGGUGGUCCCGGUGGAAUGUUCAGAGGUGGCCGUGGUGGAGACAG: 0.166
UGGCCCUGGUGGCAUGCGGGGAGGAAGAGGUGGCCUCAUGGAUCGUGUUGGUCCCGGUGGAAUGUUCAGAGGUGGCCGUGGUGGAGACAG: 0.0375

Series 2
Target: CCNB2, cyclin fold, Cln2 fusion (human)
Technique: yeast growth competition, sequencing
Sample: yeast
Notes: weak parent motif
Baseline: not given
Direction: higher = stronger binding
Endpoint: normalised enrichment score
Starting sequence: GMNC docking peptide (human); KNAKRNLSSEFAN; partner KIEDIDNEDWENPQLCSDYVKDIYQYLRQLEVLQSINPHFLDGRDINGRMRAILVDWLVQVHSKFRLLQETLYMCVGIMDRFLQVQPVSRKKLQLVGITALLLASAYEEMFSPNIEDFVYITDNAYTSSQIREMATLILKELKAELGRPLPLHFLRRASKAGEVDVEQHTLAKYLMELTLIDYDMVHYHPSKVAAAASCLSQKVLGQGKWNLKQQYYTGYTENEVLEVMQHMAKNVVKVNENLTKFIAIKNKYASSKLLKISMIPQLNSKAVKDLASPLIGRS
KNAKRELSSEFAN [N6E]: 0.521
KNAKNNLSSEFAN [R5N]: 0.803
KKAKRNLSSEFAN [N2K]: 0.827
KNAKRNLSSEAAN [F11A]: 0.802
KNAGRNLSSEFAN [K4G]: 0.196
KNAKRNLSSEFIN [A12I]: 0.501
KNAKRNLSSVFAN [E10V]: 0.295
KNVKRNLSSEFAN [A3V]: 1.59
KVAKRNLSSEFAN [N2V]: 0.413
KNAKCNLSSEFAN [R5C]: 0.137
KFAKRNLSSEFAN [N2F]: 0.694
KNAKRNLSMEFAN [S9M]: 0.543
KNAKRNLTSEFAN [S8T]: 0.165
KNAKRALSSEFAN [N6A]: 0.388
KNAKRNLSSEFVN [A12V]: -0.0978
KNAKRNLSSEFTN [A12T]: 0.363

Series 3
Target: Histone acetyltransferase KAT6A, winged helix 1, GST fusion (KAT6A, Homo sapiens, UniProt Q92794, residues 1-85)
Technique: protein binding microarray
Molecule type: double-stranded DNA, one strand shown
Sample: in vitro
Concentration: not given
Notes: 8-mer, flanks averaged, mean of 2 arrays, mostly near background
Baseline: not given
Direction: higher = stronger binding
Endpoint: E-score
Residues (chain): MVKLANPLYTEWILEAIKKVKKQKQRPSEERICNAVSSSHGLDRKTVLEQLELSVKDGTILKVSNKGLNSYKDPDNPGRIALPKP
AGGTCTGC: 0.0523
CCCCACAC: -0.187
GCAATACA: 0.167
ACGAGTAA: -0.0098
ATTTACCC: -0.0142
AGCACACA: -0.254
CATCCCAA: -0.306
CCATATAG: 0.0165
CAAGGGTA: -0.205
ACTATTTA: -0.0997
AGGGGCTC: -0.141
CTGATGCC: -0.131
CACAAATC: -0.0149
AATCACCT: -0.103
CAACCGGC: 0.27
CGTAAATA: 0.11
AGAGCTTA: -0.173
CGTACGGA: 0.286
ATCGGTAG: 0.161
AGCTATCG: -0.156
CATCGTGC: 0.0765
ACGGTGTA: 0.245

Mixed results
PhoQ, residues 284 288 289 292 302 303 NLSRDF
fold induction (PhoP, residues 12 14 15 18 19 NHFIF (Escherichia coli, UniProt P23836); Sort-seq, refers to: YFP reporter; E. coli; PhoQ-PhoP variant library, together with: 10 µM Mg2+; baseline: high Mg2+ state, higher = stronger signaling): 3.62

For quick reference, copied from above (series 3):
CCATATAG: 0.0165
CAACCGGC: 0.27
CCCCACAC: -0.187
ATTTACCC: -0.0142
